# Experimental data pooled from the literature.
# Compare with care: the assays were run in different laboratories. Numbers after ± are the reported error.
# Cell line: A549
SMILES,read-out,technique,time,IC50
CCCCCCCCCCCCCCC(=O)O.O=C1CCCC2C3CCCN4CCCC(CN12)C34 (centres unmarked),cell growth or viability,MTT,24 h,170 µM
Cc1ccnc(-c2cc(C)ccn2)c1.[C-]#[O+].[C-]#[O+].[C-]#[O+].[Re+],cell viability,,,5.2 ± 4 µM
C[C@H]1C(OCCCCCC[P+](c2ccccc2)(c2ccccc2)c2ccccc2)O[C@@H]2O[C@@]3(C)CCC4[C@H](C)CCC1[C@]42OO3 (some centres unmarked),cell growth or viability,MTT,72 h,0.187 µM
C#CCCCC[C@H](C)C[C@@H](C)C(=O)N(C)[C@@H](C)C(=O)N1CCC[C@H]1C(=O)N(C)[C@H](C(=O)N(C)[C@H](C(=O)OC)C(C)C)C(C)C,cell growth or viability,SRB,,1 µM
C[C@H]1C(OCCCCCCCCCCC[P+](c2ccccc2)(c2ccccc2)c2ccccc2)O[C@@H]2O[C@@]3(C)CCC4[C@H](C)CCC1[C@]42OO3 (some centres unmarked),cell growth or viability,MTT,72 h,0.185 µM
CC(C)[C@H](NC(=O)[C@H](CCCNC(=N)N)NC(=O)[C@H](CCC(=O)O)NC(=O)[C@H](CCCNC(=N)N)NC(=O)[C@@H](NC(=O)[C@H](CCCNC(=N)N)NC(=O)[C@@H](NC(=O)[C@@H]1CCCN1C(=O)[C@H]1CCCN1C(=O)[C@@H](NC(=O)[C@H](CCCNC(=N)N)NC(=O)[C@@H](NC(=O)[C@H](CCCNC(=N)N)NC(=O)[C@@H](NC(=O)[C@H](CCCNC(=N)N)NC(=O)[C@@H](NC(=O)[C@@H](N)CCCCN)C(C)C)C(C)C)C(C)C)C(C)C)[C@@H](C)O)C(C)C)C(=O)N[C@@H](CCCCN)C(N)=O,,,,> 1000 µM
CC[C@@H](C)[C@@H](NC(=O)[C@@H](Cc1c[nH]c2ccccc12)NC(=O)[C@H](N)CCCNC(=N)N)C(=O)N[C@H](CCSC)C(=O)N[C@H](Cc1ccc(O)cc1)C(=O)N[C@H](Cc1ccccc1)C(N)=O,cell growth or viability,trypan blue,,18 µM
COCC12CN(C)C3C4C(OC)C1C3(C(OC)CC2O)C1CC2(O)C(OC)C(O)C4(O)C1C2OC(=O)c1ccccc1 (centres unmarked),cell growth or viability,MTT,,25.9 µM
CC[C@H](C)[C@@H]1NC(=O)[C@H](CCCNC(=N)N)NC(=O)C[C@@H](c2cccc3ccccc23)NC(=O)[C@@H]2CSSC[C@H](NC(=O)C[C@@H](c3cccc4ccccc34)NC(=O)[C@H](CCCNC(=N)N)NC(=O)[C@@H]3CCCN3C(=O)[C@@H]3CCCN3C1=O)C(=O)N[C@@H](Cc1ccccc1)C(=O)N1CCC[C@H]1C(=O)N[C@@H](CC(=O)O)C(=O)N[C@@H](CC(=O)O)C(=O)N[C@@H](Cc1ccccc1)C(=O)N2,cell growth or viability,ATP luminescence,72 h,0.369 µM
O=C(O)c1ccc([PH]([Au][Cl])(c2ccccc2)c2ccccc2)cc1,cell growth or viability,resazurin,72 h,24.9 µM
C[C@H]1C(OCCCCC[P+](c2ccccc2)(c2ccccc2)c2ccccc2)O[C@@H]2O[C@@]3(C)CCC4[C@H](C)CCC1[C@]42OO3 (some centres unmarked),cell growth or viability,MTT,72 h,0.279 µM
C[C@H]1O[C@@H](O[C@H]2CC[C@@]3(C)[C@H](CC[C@@H]4[C@@H]3C[C@@H](O)[C@]3(C)[C@@H](C5=CC(=O)OC5)CC[C@]43O)C2)C[C@H](O)[C@@H]1O[C@@H]1O[C@H](CO)[C@@H](O)[C@H](O)[C@H]1O,cell growth or viability,MTT,48 h,0.15 µM
COCC12CCC(OC)C34C5CC6(O)C(OC)C(O)C(O)(C5C6OC(=O)c5ccccc5)C(C(OC)C13)C4N(C)C2 (centres unmarked),cell growth or viability,MTT,,21.5 µM
CC1OC(OC2CCC3(C)C(CCC4C3CCC3(C)C(C5=CC(=O)OC5)CCC43O)C2)C(O)C(O)C1OC1OC(CO)C(O)C(O)C1O (centres unmarked),cell growth or viability,MTT,48 h,0.09 µM
Cc1[nH]c2cc(Cl)cc(Cl)c2c1CCN,cell growth or viability,ATP luminescence,72 h,34.4 µM
CC(=O)[C@@H]1CCCN1C(=O)[C@@H]1CCCN1C(=O)[C@H](Cc1ccccc1)NC(=O)[C@@H](NC(=O)[C@@H](NC(=O)[C@@H](NC(=O)[C@@H]1CCCN1C(=O)[C@H](C)NC(=O)OC(C)(C)C)C(C)C)C(C)C)C(C)C,cell growth or viability,SRB,,2 µM
CC(C)C(O)C(NC(=O)[C@H](Cc1ccc(O)cc1)NC(=O)C(Cc1ccc(O)c(Cl)c1)[N+](C)(C)C)C(=O)N[C@@H](C)C(=O)O (some centres unmarked),cell growth or viability,,,> 100 µM
C=CC[P](c1ccccc1)(c1ccccc1)[Pt]([S]c1nc2ccccc2s1)([S]c1nc2ccccc2s1)[P](CC=C)(c1ccccc1)c1ccccc1,cell growth or viability,MTT,,20.2 µM
C1=CCCC=CCC1.C1=CCCC=CCC1.[Cl][Hg-]([Cl])[Cl].[Cl][Hg-]([Cl])[Cl].[Pt+][c]1ccccc1P(=Nc1ccccc1)(c1ccccc1)c1ccccc1.[Pt+][c]1ccccc1P(=Nc1ccccc1)(c1ccccc1)c1ccccc1,cell growth or viability,MTT,24 h,0.85 µM
C[C@@H]1O[C@@H](Oc2cc3c(=O)oc4c(O)c(O)cc5c(=O)oc(c2O)c3c45)[C@H](O)[C@H](O)[C@H]1OC(=O)c1cc(O)c(O)c(O)c1,cell growth or viability,MTT,48 h,> 100 µg/mL
CCN1CC2(COC)CCC(OC)C34C5CC6C(OC)CC(O)(C5C6OC(=O)c5ccccc5)C(C(OC)C23)C14 (centres unmarked),cell growth or viability,MTT,,13.9 µM
C=CC[P](c1ccccc1)(c1ccccc1)[Pt]([Cl])([Cl])[P](CC=C)(c1ccccc1)c1ccccc1,cell growth or viability,MTT,,22.5 µM
CCN1CC2(COC)CCC(O)C34C5CC6C(OC)CC(O)(C(CC23)C14)C5C6O (centres unmarked),cell growth or viability,MTT,,8.33 µM
O=C(c1ccccc1O)c1[nH]c(Cl)c(Cl)c1-n1c(C(=O)c2ccccc2O)cc(Cl)c1Cl,cell growth or viability,resazurin,24 h,14 µg/mL
CCN1CC2(COC)CCC(OC)C34C5CC6C(OC)CC(O)(C(CC23)C14)C5C6OC(=O)c1ccccc1 (centres unmarked),cell growth or viability,MTT,,25.4 µM
C[C@H]1O[C@@H](O[C@H]2CC[C@@]3(C)[C@H](CC[C@@H]4[C@@H]3CC[C@]3(C)[C@@H](C5=CC(=O)OC5)[C@@H](O)C[C@]43O)C2)C[C@H](O)[C@@H]1O[C@@H]1O[C@H](CO)[C@@H](O)[C@H](O)[C@H]1O,cell growth or viability,MTT,48 h,0.14 µM
N.N.O=C([O][Pt]([OH])([Cl])[Cl])c1ccc(P(c2ccccc2)c2ccccc2)cc1.[Cl][Au],cell growth or viability,resazurin,72 h,15 µM
COCC12CCC(OC)C34C5CC6(O)C(O)C5C(O)(C(O)C6OC)C(C(OC)C13)C4N(C)C2 (centres unmarked),cell growth or viability,MTT,,12.3 µM
COc1ccc2c(c1O)CCCC=C2c1cc(OC)c(OC)c(OC)c1,cell growth or viability,SRB,,2.7e-05 µM

# Excerpt of the above:
SMILES,read-out,technique,time,IC50
C[C@H]1C(OCCCCC[P+](c2ccccc2)(c2ccccc2)c2ccccc2)O[C@@H]2O[C@@]3(C)CCC4[C@H](C)CCC1[C@]42OO3 (some centres unmarked),cell growth or viability,MTT,72 h,0.279 µM
CCN1CC2(COC)CCC(O)C34C5CC6C(OC)CC(O)(C(CC23)C14)C5C6O (centres unmarked),cell growth or viability,MTT,,8.33 µM
CCCCCCCCCCCCCCC(=O)O.O=C1CCCC2C3CCCN4CCCC(CN12)C34 (centres unmarked),cell growth or viability,MTT,24 h,170 µM
